# Measurements pooled from the literature.
# Protocols differ between the studies behind these lines. Numbers after ± are the reported error.
# BRAF: Serine/threonine-protein kinase B-raf (BRAF, Homo sapiens, UniProt P15056)
# Sequence of UniProt P15056 (whole entry, unmodified, looked up): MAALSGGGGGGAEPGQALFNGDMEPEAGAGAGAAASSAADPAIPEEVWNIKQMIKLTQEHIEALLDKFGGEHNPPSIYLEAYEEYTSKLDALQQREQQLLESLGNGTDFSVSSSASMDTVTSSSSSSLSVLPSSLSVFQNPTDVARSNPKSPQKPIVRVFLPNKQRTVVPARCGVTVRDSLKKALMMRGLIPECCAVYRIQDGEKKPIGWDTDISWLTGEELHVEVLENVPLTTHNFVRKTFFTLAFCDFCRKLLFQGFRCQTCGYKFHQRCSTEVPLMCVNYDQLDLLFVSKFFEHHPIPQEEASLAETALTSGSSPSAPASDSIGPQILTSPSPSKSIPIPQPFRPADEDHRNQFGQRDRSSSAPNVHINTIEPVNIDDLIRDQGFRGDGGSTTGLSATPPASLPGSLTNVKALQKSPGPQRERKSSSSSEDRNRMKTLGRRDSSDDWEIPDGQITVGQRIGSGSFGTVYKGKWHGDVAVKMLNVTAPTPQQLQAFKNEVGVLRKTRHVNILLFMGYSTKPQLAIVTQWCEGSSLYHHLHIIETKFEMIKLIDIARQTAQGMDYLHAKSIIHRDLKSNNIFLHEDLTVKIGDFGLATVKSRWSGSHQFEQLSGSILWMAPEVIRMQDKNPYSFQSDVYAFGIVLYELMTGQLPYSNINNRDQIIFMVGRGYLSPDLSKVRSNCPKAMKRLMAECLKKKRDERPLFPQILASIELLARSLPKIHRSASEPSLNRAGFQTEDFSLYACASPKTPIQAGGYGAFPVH
Compound,target,assay,system,conditions,scale,quantity,result
C=CC(=O)N1CCC(COCC(=O)N2CCN(c3nc(-c4cnc(N)nc4C(F)F)nc(N4CCOC[C@@H]4C)n3)CC2)CC1,BRAF,KINOMEscan,,1 µM,,remaining binding,90%
c1cnc2ccc(Nc3nc(NC4CC4)c4nc[nH]c4n3)cc2c1,BRAF,"kinase activity, inhibitor, SelectScreen kinase profiling",,1 µM,reference: control,remaining activity,98%
C=CC(=O)N1CCC[C@@H](n2nc(-c3ccc(Oc4ccccc4)cc3)c3c(N)ncnc32)C1,BRAF,,,10 µM,,remaining activity,93.5%
COc1ccc(F)cc1C(=O)NCc1ccc(-c2nn([C@@H](C)C(F)(F)F)c(N)c2C(N)=O)cc1,BRAF,,,"1000 nM, with: ATP at Km",,remaining activity,103 ± 1.4%
COc1ccc(-c2ccc3c(N4CCOC[C@@H]4C)nc(N4CCOC[C@@H]4C)nc3n2)cc1COC(=O)CCOCCOCCOCCONC(=O)c1ccc(F)c(F)c1Nc1ccc(I)cc1F,"BRAF (Homo sapiens, UniProt P15056, V600E)","kinase activity, inhibitor",,2.5 µM,,inhibition,inhibited
CC/C(=N\NC(=O)NCc1cccc(O)c1)c1ccc(O)c(C)c1O,"BRAF (Homo sapiens, UniProt P15056, V600E)","kinase activity, inhibitor",,0.1 µM,,inhibition,0%
[2H]c1cc(C)c(NC(=O)c2cnc(Nc3cc(N4CCCCC4)nc(C)n3)s2)c(Cl)c1,BRAF,,,0.01 µM,,inhibition,< 30%
C#Cc1cnc(Nc2ccnc(CO)c2)nc1Nc1ccccc1S(C)(=O)=NC#N (stereo not shown),"BRAF (Homo sapiens, UniProt P15056, V600E)","kinase activity, kinase selectivity panel",,1 µM,reference: control,remaining activity,92%
CCN1CCN(Cc2ccc(NC(=O)c3ccc(C)c(Oc4ccnc5[nH]ccc45)c3)cc2C(F)(F)F)CC1,"BRAF (Homo sapiens, UniProt P15056, V600E)",,A-375,0.05 µM,,inhibition,-20.4%
C=CC(=O)N1CCC([C@@H]2CCNc3c(C(N)=O)c(-c4ccc(Oc5ccccc5)cc4)nn32)CC1,BRAF,"kinase activity, inhibitor, HotSpot radiometric",,"100 nM, with: ATP 10 µM",,remaining activity,72.4 ± 5.2%
COc1cc(-c2cncc3c2CN(C)Cc2cc(N4CCNCC4)ccc2-3)cc(OC)c1OC,"BRAF (Homo sapiens, UniProt P15056, V600E)",kinase activity,,"1 µM, with: ATP 10 µM",reference: DMSO control,remaining activity,92%
CNc1cc(Oc2cc(C(=O)Nc3cc(N4CCN(C)CC4)cc(C(F)(F)F)c3)ccc2C)ncn1,"BRAF (Homo sapiens, UniProt P15056, V600E)",,Huh-7,1 µM,,inhibition,-99.6%
Cc1cc(O)c(-c2ccc([C@@H](C)CN(C)C)cc2)c2c1[nH]c(=O)c1sccc12,"Serine/threonine-protein kinase B-raf, V600E (BRAF, Homo sapiens, UniProt P15056)","inhibitor, KiNativ probe labelling",cell lysate,0.1 µM,,inhibition,-25.6%

# A few entries again:
Compound,target,assay,system,conditions,scale,quantity,result
COc1ccc(-c2ccc3c(N4CCOC[C@@H]4C)nc(N4CCOC[C@@H]4C)nc3n2)cc1COC(=O)CCOCCOCCOCCONC(=O)c1ccc(F)c(F)c1Nc1ccc(I)cc1F,"BRAF (Homo sapiens, UniProt P15056, V600E)","kinase activity, inhibitor",,2.5 µM,,inhibition,inhibited
CC/C(=N\NC(=O)NCc1cccc(O)c1)c1ccc(O)c(C)c1O,"BRAF (Homo sapiens, UniProt P15056, V600E)","kinase activity, inhibitor",,0.1 µM,,inhibition,0%
